Earlier results, collected from citations in different studies.
Compare with care: the assays were run in different laboratories. ± gives the spread as reported.

SMILES = O=C(Nc1cc(Cl)ccc1Cl)c1c[nH]c2ccc(Cl)cc2c1=O; target or system = ACP-03; quantity = IC50; value = 5.18 µM
SMILES = c1ccc2c(c1)CCCNC2c1c[nH]c2ccccc12 (stereo not shown); target or system = MRC-5 fibroblasts; assay = cytotoxicity; quantity = IC50; value = > 100 µM
SMILES = CNCCN(C)Cc1ccc(-c2ccc(C(F)(F)F)cc2)o1; target or system = Daoy; assay = cell viability; quantity = IC50; value = 69.8 µM
SMILES = c1ccc2c(c1)CCNC2c1c[nH]c2ccncc12 (stereo not shown); target or system = COLO 205; assay = cytotoxicity; quantity = IC50; value = > 100 µM
SMILES = CCC(=C(c1ccc(O)cc1)c1ccc(O)cc1)[c-]1cccc1.[Fe+2].c1cc[cH-]c1; target or system = NCI60 panel; setting = mean-graph midpoint; quantity = TGI; value = 4.28 µM
SMILES = CC(C)C(=O)N1CCC(c2ccc(NC(=O)N3Cc4ccccc4C3)cc2)CC1; target or system = PC-3; quantity = EC50; value = 0.0092 µM
SMILES = c1ccc2c(c1)CCNC2c1c[nH]c2ncccc12 (stereo not shown); target or system = MRC-5 fibroblasts; assay = cytotoxicity; quantity = IC50; value = > 100 µM
SMILES = CCn1nccc1C1CCCN1S(=O)(=O)c1cc(C)c(C)cc1C (stereo not shown); target or system = human monocytes; assay = phagocytosis of anti-D RBCs; setting = 5 µM, commercial sample; quantity = inhibition; value = > 69%
SMILES = CC(C)=CCC/C(C)=C/CCn1cc(CC(C)(P(=O)(O)O)P(=O)(O)O)nn1; target or system = myeloma cells; quantity = lowest effective concentration; value = 20 nM
SMILES = c1ccc2c(C3NCCc4c3[nH]c3ccccc43)c[nH]c2c1 (stereo not shown); target or system = MRC-5 fibroblasts; assay = cytotoxicity; quantity = IC50; value = 22.9 µM
SMILES = CC(=O)OC1C(=O)C2(C)C(O)CC3OCC3(OC(C)=O)C2C(OC(=O)c2cccc(OC(F)(F)F)c2)C2(O)CC(OC(=O)C(O)C(C=C(C)C)NC(=O)OC(C)(C)C)C(C)=C1C2(C)C (stereo not shown); target or system = MCF7/PTX; setting = concentration not given; quantity = mammosphere formation; value = decreased
SMILES = CO[C@@H]1[C@@H](OC(=O)c2ccc(C)[nH]2)[C@@H](O)[C@H](Oc2ccc3c(O)c(NC(=O)c4c[nH]c(C(=O)Nc5c(O)c6ccc(O[C@@H]7OC(C)(C)[C@H](OC)[C@@H](OC(=O)c8ccc(C)[nH]8)[C@H]7O)c(C)c6oc5=O)c4C)c(=O)oc3c2C)OC1(C)C; target or system = NCI60 tumour cell lines; assay = cell growth; quantity = GI50; value = 0.5 to 5 µM
SMILES = CC(C)c1ccc(NC(=O)Nc2ccc(NC(=O)c3c[nH]c4ccc(Cl)cc4c3=O)cc2)cc1; target or system = HepG2; how to read = baseline: cpd over sorafenib; quantity = potency ratio; value = 5.24 fold
SMILES = O=C1c2ccc3c4ccc5c6c(ccc(c7ccc(c2c37)C(=O)N1CCN1CCCCC1)c64)C(=O)N(CCN1CCCCC1)C5=O; target or system = PC-3; assay = telomere shortening; setting = long-term treatment; quantity = effective concentration; value = 1 µM
SMILES = N#CN=C(NCc1ccc(S(=O)(=O)c2cccc(OC(F)(F)F)c2)cc1)Nc1ccncc1; target or system = MCF7; quantity = EC50; value = 0.00033 µM
SMILES = COc1ccc(Nc2nc(Nc3ccc(OCC[18F])cc3)ncc2Br)cc1; system = S180 tumour-bearing mice, bone; setting = intravenous, 120 min; quantity = tissue uptake; value = 4.71 ± 0.53 %ID/g

For quick reference, copied from above:
SMILES = CCn1nccc1C1CCCN1S(=O)(=O)c1cc(C)c(C)cc1C (stereo not shown); target or system = human monocytes; assay = phagocytosis of anti-D RBCs; setting = 5 µM, commercial sample; quantity = inhibition; value = > 69%
